Experimental data pooled from the literature.
A part holds a random share of what one study measured. Changes are numbered by the printed parent chain.

Set 1
Target: Histone acetyltransferase KAT6A, winged helix 2, GST fusion (KAT6A, Homo sapiens, UniProt Q92794, residues 85-181)
Method: protein binding microarray
Form: double-stranded DNA, one strand shown
Medium: in vitro
Tested at: not given
Setting: 8-mer, flanks averaged, mean of 2 arrays, mostly near background
Reference: not given
Direction: higher = stronger binding
Residues (chain): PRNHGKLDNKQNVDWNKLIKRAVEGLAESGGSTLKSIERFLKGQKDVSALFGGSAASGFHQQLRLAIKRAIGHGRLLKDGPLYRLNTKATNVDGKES
Strand | E-score
ATGTATTG | -0.00625
ACGTGACC | -0.308
ACCAAAAC | -0.043
GCGTCATA | 0.0966
GCCGCCAA | 0.123
GGCCTTCA | 0.0106
CCGAAGCG | 0.0834
CCTCTTGA | -0.0762

Set 2
Target: OGT, full length, His-tagged (human)
Method: phage display, sequencing
Medium: in vitro
Tested at: 1 µg OGT
Setting: single substitutions, 15-mer displayed peptide, unchanged parent 19.6
Reference: input library
Direction: higher = stronger binding
Starting sequence: peptide; TAPFYPPAYQIQVFK; partner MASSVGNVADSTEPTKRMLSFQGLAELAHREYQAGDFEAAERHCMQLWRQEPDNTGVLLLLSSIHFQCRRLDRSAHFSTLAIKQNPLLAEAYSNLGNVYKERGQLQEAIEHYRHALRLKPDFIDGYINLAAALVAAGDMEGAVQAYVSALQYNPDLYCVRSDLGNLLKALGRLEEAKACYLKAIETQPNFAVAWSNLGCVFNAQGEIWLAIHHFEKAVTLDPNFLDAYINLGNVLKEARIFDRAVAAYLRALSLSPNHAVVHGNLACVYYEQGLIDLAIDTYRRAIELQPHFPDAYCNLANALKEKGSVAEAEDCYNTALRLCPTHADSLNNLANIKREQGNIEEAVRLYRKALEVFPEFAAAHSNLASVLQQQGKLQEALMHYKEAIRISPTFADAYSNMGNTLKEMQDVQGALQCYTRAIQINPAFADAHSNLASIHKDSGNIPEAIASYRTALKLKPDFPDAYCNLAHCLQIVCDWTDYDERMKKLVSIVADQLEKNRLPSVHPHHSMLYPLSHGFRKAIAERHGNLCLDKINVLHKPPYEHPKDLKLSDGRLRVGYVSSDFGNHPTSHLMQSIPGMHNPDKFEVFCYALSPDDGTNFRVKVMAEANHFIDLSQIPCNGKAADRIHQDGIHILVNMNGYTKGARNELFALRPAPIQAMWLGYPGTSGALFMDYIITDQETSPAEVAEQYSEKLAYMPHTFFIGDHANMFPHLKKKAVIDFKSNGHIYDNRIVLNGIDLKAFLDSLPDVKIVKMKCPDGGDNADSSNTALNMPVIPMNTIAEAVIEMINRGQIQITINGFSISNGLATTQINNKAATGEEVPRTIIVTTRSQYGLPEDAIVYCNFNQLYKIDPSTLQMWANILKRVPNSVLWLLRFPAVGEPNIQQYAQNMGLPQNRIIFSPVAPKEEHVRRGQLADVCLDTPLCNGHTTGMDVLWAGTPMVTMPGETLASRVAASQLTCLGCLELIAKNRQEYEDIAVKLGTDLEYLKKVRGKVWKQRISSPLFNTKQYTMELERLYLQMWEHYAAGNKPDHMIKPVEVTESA
Substitution | fold enrichment
V13N | 1.57 fold
T1D | 27.4 fold
T1A | 17.6 fold
T1Y | 14.1 fold
Q12P | 9.24 fold
F4H | 14.9 fold
V13A | 11 fold
A8S | 3.54 fold

Mixed results
FOXP2 N-truncated, polyQ removed: Forkhead box protein P2, N-truncated, polyQ removed (FOXP2, Homo sapiens, UniProt O15409, residues 214-715)
Chain of UniProt O15409 (214-715, unmodified, looked up): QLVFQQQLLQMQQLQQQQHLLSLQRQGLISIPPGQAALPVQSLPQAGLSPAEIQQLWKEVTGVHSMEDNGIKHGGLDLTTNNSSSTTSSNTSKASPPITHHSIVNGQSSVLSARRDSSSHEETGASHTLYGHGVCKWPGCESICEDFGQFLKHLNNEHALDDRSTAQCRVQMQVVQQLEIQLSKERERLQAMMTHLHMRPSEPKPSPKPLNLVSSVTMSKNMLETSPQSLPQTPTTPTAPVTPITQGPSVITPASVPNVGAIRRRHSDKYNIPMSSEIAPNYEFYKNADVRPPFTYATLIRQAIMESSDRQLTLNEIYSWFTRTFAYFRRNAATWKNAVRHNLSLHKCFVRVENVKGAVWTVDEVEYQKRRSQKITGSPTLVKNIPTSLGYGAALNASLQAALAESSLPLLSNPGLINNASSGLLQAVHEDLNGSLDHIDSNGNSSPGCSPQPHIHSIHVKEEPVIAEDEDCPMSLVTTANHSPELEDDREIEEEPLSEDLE
Substance | target | assay | system | conditions | how to read | measurement | result
CGCCTGTTACGGCATCAGGGCTTTGGTTTGGGATGGCTGCTAGTTTACCAATTGTTCCGGCGGTATGAC | FOXP2 N-truncated, polyQ removed | MITOMI | double-stranded DNA, one strand shown, in vitro | not given, 69-bp whole dsDNA, apparent Ka, titration fit | reference: unmutated reference site, higher = stronger binding | relative association constant | 0.0651 fold
O=C1NC(=O)C(c2c[nH]c3ccccc23)=C1c1c[nH]c2ccccc12 | Mitogen-activated protein kinase 1 (MAPK1, Homo sapiens, UniProt P28482) | enzyme activity, inhibitor |  | 0.5 µM | reference: control | remaining activity | 90.5%
CGCCTGTTACGGCATCAGGGCTTTGGTTTGGGATGGCTGCTTGCTTACCAATTGTTCCGGCGGTATGAC | FOXP2 N-truncated, polyQ removed | MITOMI | double-stranded DNA, one strand shown, in vitro | not given, 69-bp whole dsDNA, apparent Ka, titration fit | reference: unmutated reference site, higher = stronger binding | relative association constant | 0.0492 fold

For quick reference, copied from above (mixed results):
Substance | target | assay | system | conditions | how to read | measurement | result
CGCCTGTTACGGCATCAGGGCTTTGGTTTGGGATGGCTGCTAGTTTACCAATTGTTCCGGCGGTATGAC | FOXP2 N-truncated, polyQ removed | MITOMI | double-stranded DNA, one strand shown, in vitro | not given, 69-bp whole dsDNA, apparent Ka, titration fit | reference: unmutated reference site, higher = stronger binding | relative association constant | 0.0651 fold
O=C1NC(=O)C(c2c[nH]c3ccccc23)=C1c1c[nH]c2ccccc12 | Mitogen-activated protein kinase 1 (MAPK1, Homo sapiens, UniProt P28482) | enzyme activity, inhibitor |  | 0.5 µM | reference: control | remaining activity | 90.5%
